# Measured values pooled from the literature.
# Numbered parts are unrelated; each lists some results of a single study. Positions count from the first letter of the parent shown.

# Series 1 — target: CCNE2, cyclin fold, Cln2 fusion (human); technique: yeast growth competition, sequencing; matrix: yeast; notes: strong parent motif; reference: not given; direction: higher = stronger binding
# Starting sequence: E2F2 docking peptide (human); LPAKRKLDLEGIG
Variant,normalised enrichment score
D8A,0.552
L1A,1.08
R5K L9F,2.06
G13A,1.23
K4A,0.749
P2A,0.749
I12A,0.857

# Series 2 — technique: RNA Bind-n-Seq; form: RNA; matrix: in vitro; concentration: not given; reference: input RNA pool; direction: higher = stronger binding
# Target: RING finger protein unkempt homolog, zinc fingers 1-6, GST-SBP tag (UNK, Homo sapiens, UniProt Q9C0B0, residues 30-357)
# Notes: RNA with constant flanks, human-mouse chimeric sites, ends assumed
# Target sequence (chain): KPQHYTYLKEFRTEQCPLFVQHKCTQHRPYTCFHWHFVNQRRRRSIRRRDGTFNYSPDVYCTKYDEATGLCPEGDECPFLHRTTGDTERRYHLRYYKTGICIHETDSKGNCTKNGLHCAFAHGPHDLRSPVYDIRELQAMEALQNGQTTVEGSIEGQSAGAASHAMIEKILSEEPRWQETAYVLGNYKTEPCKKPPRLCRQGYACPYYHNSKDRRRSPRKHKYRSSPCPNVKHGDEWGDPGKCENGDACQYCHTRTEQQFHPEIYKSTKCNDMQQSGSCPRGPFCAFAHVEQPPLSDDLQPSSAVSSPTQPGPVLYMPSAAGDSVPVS
Strand,bound/input enrichment
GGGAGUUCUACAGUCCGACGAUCCCAAUUGUGGAGCAGUACUUGAAGACAAAAAAGAACUCUAGUCAUUUAAUCAUCAAGUACAUUAGCUGCCGCCUGCUGACACUCAUCAUUAUACUGUUAGCGUGUAUCUACCUGGGCUAUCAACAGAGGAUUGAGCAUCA,0.38 ratio
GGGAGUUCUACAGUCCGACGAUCCACGUGUCUGCAGUACUUGAUGUGGACUACUCUCCCACUGGGAAGGAAUUUGUGUCUGCUAGUUUCGAUAAGUCUAUUAGAAUCUUUCCUGUGGACAAGAGCCGAAGCAGGGAAGUGUAUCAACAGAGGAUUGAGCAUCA,1.57 ratio
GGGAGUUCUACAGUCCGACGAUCGCUCCUCCCCGCUCUGCAGCCUGGGGACUUUUGGCAAGGACCAGAAUCCAGCUUUCUUUUAAAACUCUCAGUGUAACUGUAUCCCGUUUUUUUCUUUUUUUUUUAAAUAGUGUAUUUUUUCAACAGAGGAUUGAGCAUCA,28.2 ratio
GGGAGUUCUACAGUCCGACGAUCUGUGCAUAUGAUGCUUGAGAUGGUUUUUGCAGAUGCAGAAAUCGCUGCAAGGUAAUCACAAUAGAUAAAAGUGGUAUUUUAAACCUUUGAAAGGAAUGGAUGUAACUGUACCUUGGUACACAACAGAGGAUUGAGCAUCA,0.347 ratio
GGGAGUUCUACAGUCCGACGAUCUGUAGUUGAUCCCCUGCUCAUUUUUCUCUUUUCUUUCUUUCCUUUAGGAAAAGCCUAAAGAUUAGGUUGUAAGAAAAACAGAAGCCAGCCAUGUUUCACCUGUGUUACAGGUAUUUCGUCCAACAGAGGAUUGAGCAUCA,0.0742 ratio
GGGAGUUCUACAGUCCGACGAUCAUGGAACAUUUCGAUGCGUCACUCAGUACCUAUUUCAAGGCCUUCCUGGGCCCCCGAGAUACUAGAGUCAAAGGAUGGUUCCUCCUGGACAAUUAUAUCCCUACGUUUGUCUGUUCUGUUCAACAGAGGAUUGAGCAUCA,0.0985 ratio
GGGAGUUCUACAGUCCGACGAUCCUGGCCUGGCCCUCCCCAGGGGCCUCCUUUCGUAUAGUCACUGCUUCUGCUACGGAUACUUUCAGCUCCAAGUCCUGACUGGGUGGGGCACCCAUUUCAGGCAGAAGGUUUUGGUACCCUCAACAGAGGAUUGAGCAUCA,0.205 ratio
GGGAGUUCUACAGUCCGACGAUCCUGGCACUCUAUCAGAUAGAUUACUUUUUUAAUGUAGAUGUAAUUUUAAAAAUGAAUGGCUACUUUACACGUUUAACUAGGGUUUUACUACAUAUGUGUACAUAUGUAUAUAUAUAUAUACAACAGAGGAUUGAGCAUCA,23.1 ratio

# Series 3 — target: UBE2J1 UBC core domain (UniProt Q9Y385); technique: yeast two-hybrid; matrix: yeast; notes: mostly zero background; reference: not given; direction: higher = stronger interaction
# B1: UBE4A RING domain (UniProt Q14139); chain LQQQEEETYADACDEFLDPIMSTLMCDPVVLPSSRVTVDRSTIARHLLSDQTDPFNRSPLTMDQIRPNTELKEKIQRWLAERKQQKEQLE
# B2: TRIM35 RING domain (UniProt Q9UPQ4); chain PSRSFKEELLCAVCYDPFRDAVTLRCGHNFCRGCVSRCWEVQVSPTCPVCKDRASPADLRT
# B3: PEX2 RING domain (UniProt P28328); chain DNTLATSGKECALCGEWPTMPHTIGCEHIFCYFCAKSSFLFDVYFTCPKCGTEVHSLQPLK
# B4: RNF175 RING domain (UniProt Q8N4F7); chain LPTRSLSDNICAVCGQKIIVELDEEGLIENTYQLSCNHVFHEFCIRGWCIVGKKQTCPYCKEKVDLKRMIS
# B5: TRIM10 RING domain (UniProt Q9UDY6); chain SVTSLADEVNCPICQGTLREPVTIDCGHNFCRACLTRYCEIPGPDLEESPTCPLCKEPFRPGSFRP
# B6: RFPL2 RING domain (UniProt O75678); chain MAALFQEASSCPVCSDYLEKPMSLECGCAVCLKCINSLQKEPHGEDLLCCCSSMVSRKNKIRR
# B7: RNF14 RING domain (UniProt Q9UBS8); chain IKCFNSKLFLCSICFCEKLGSECMYFLECRHVYCKACLKDYFEIQIRDGQVQCLNCPEPKCPSVATPGQVK
# Construct (chain): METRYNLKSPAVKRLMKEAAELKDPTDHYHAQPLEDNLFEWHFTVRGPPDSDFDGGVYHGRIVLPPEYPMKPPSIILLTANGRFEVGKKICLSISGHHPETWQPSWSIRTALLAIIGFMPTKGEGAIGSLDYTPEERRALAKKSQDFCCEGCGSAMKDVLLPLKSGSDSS
Molecule,lacZ reporter activity
B1 (UBE4A RING domain),0
B2 (TRIM35 RING domain),0
MANWVFCNRCFQPPHRTSCFSLTNCGHVYCDACLGKGKKNECLICKAPCRTVLLSK (RNF212 RING domain (UniProt Q495C1)),0
FLKKLEQSFMCVCCQELVYQPVTTECFHNVCKDCLQRSFKAQVFSCPACRHDLGQNYIMI (UHRF2 RING domain (UniProt Q96PU4)),0
SYEDKSNDFVCPICFDMIEEAYMTKCGHSFCYKCIHQSLEDNNRCPKCNYVVDNIDHLY (COP1 RING domain (UniProt Q8NHY2)),0
B3 (PEX2 RING domain),0
B4 (RNF175 RING domain),0
B5 (TRIM10 RING domain),0
B6 (RFPL2 RING domain),0
B7 (RNF14 RING domain),0

# Series 4 — technique: RNA Bind-n-Seq; form: RNA; matrix: in vitro; concentration: 200 nM; notes: whole 134-nt RNA, ends assumed; together with: 150 mM LiCl; reference: input library; direction: higher = stronger binding; each molecule: 7-deaza-guanosine replaces G
# Target: Ras GTPase-activating protein-binding protein 1, full length (G3BP1, Homo sapiens, UniProt Q13283)
# Chain of UniProt Q13283 (whole entry, looked up): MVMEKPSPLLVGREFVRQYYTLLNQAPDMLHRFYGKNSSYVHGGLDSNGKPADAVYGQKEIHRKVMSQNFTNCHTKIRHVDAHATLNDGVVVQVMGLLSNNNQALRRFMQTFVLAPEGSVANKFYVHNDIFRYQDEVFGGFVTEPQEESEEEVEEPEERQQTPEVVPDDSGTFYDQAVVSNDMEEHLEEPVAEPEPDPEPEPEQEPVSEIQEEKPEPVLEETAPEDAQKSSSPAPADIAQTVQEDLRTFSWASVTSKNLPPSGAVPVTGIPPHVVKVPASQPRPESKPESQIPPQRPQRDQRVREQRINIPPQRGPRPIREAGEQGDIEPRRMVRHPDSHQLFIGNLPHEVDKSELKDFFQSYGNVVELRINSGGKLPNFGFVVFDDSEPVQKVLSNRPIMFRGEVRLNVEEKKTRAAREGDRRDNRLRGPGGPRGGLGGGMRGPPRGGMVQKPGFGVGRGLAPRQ
Strand,log2 enrichment
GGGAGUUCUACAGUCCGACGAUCUAACUUUAGAGGAGGAUCUGAUGGAUAUGGCAGUGGACGUGGAUUUGGGGUUGGCUAUAAUGGGUAUGGAGGAGGACCUGGAGGUGGCAAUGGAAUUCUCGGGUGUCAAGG,-0.331
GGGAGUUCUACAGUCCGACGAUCACCAUGCAGGUGGGCAUCUUUGGGAAGUGGGGCAAGGGGGGGAUAGGGAGGGAGGUAACACUUUGGGAACAGGUGGUCCCAGGUCGUUUCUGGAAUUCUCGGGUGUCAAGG,0.332
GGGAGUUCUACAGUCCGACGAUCCAAGUCCUGUGCUACACAUCGUAUGUACCGAAUCGGGAGGGAGGGUUUUUUUGGGAAAGUAUUAUGUUACGCCGUUCGGAUCUGCACUUCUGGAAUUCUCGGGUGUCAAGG,0.128
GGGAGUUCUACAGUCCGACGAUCCUCAAGUCCUGUGCUACACAUCGUAUGUACCGAAUCGGGGAAGGAAGGGGAAGGAAAGUAUUAUGUUACGCCGUUCGGAUCUGCACUUCCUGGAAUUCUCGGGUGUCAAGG,-0.563
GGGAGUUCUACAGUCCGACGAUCACCAUGCAGGUGGGCAUCUUUGGGAAGUGGGGCAAGGGGGGGAUAGGGAGGCGGGUAACACUUUGGGAACAGGUGGUCCCAGGUCGUUUCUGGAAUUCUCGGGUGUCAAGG,0.223
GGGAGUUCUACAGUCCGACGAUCUAACUUUAGAGGAGGAUCUGAUGGAUAUGGCAGUGGGCGUGGAUUUGGGGAUGGCUAUAAUGGGUAUGGAGGAGGACCUGGAGGUGGCAAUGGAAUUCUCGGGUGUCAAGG,0.0324
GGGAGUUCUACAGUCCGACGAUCUUUAAGAGCAGCCAGGGAGAUAGUGGCGUUGACUUGAGUGCCGAGUCUCGGGAGUCGUCUGCGACCUCCUCGCAGCGCAGCUCCCCAUAUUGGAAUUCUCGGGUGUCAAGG,1.42
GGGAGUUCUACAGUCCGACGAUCUGGCCCUGGUGGCAUGCGGGGAGGAAGAGGUGGCCUCAUGGAUCGUGGUGGUCCCUGUGGAAUGUUCAGAGGUGGCCGUGGUGGAGACAGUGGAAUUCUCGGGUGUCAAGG,0.653

# Series 5 — technique: protein binding microarray; form: double-stranded DNA, one strand shown; matrix: in vitro; concentration: not given; reference: not given; direction: higher = stronger binding
# Target: Histone acetyltransferase KAT6A, both winged helices, GST fusion (KAT6A, Homo sapiens, UniProt Q92794, residues 1-181)
# Notes: 8-mer, flanks averaged, mean of 2 arrays, mostly near background
# Construct (chain): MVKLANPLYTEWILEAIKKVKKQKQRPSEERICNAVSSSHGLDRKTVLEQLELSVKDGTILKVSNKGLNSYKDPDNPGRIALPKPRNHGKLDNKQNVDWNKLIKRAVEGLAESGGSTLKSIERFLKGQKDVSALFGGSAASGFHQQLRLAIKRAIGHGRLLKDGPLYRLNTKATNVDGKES
Strand,E-score
CTAAGCAA,-0.0775
AACGGACT,0.111
ATAAAGAC,-0.094
ACTAGTTC,-0.0425
GACTATGC,-0.0152
AAAACGGC,0.259
GTGATGCA,-0.177
AACAACGC,0.0974
AGTAGCAG,-0.301
ATCTACAA,-0.143
GCGATGAC,0.133
AGCCCGGA,0.129
ATAAACTA,-0.0389
CACTAGAC,0.0135
AGTCTTTC,-0.0978
CCCCGAGC,0.0365
AAACTGCG,0.126
CACGCCGG,0.258
AGCTTCGG,-0.00758
AGTCGGCA,0.116
CGTGCCTC,0.0623

# Repeated from above (series 3):
Molecule,lacZ reporter activity
FLKKLEQSFMCVCCQELVYQPVTTECFHNVCKDCLQRSFKAQVFSCPACRHDLGQNYIMI (UHRF2 RING domain (UniProt Q96PU4)),0
B3 (PEX2 RING domain),0
B2 (TRIM35 RING domain),0
B5 (TRIM10 RING domain),0
B4 (RNF175 RING domain),0
MANWVFCNRCFQPPHRTSCFSLTNCGHVYCDACLGKGKKNECLICKAPCRTVLLSK (RNF212 RING domain (UniProt Q495C1)),0
